Measurements collected from several papers.
Numbered parts are unrelated; each lists some results of a single study. Changes are numbered by the printed parent chain.

Series 1 — method: protein binding microarray; form: double-stranded DNA, one strand shown; medium: in vitro; tested at: not given; baseline: not given; direction: higher = stronger binding
Target: Histone acetyltransferase KAT6A, winged helix 1, GST fusion (KAT6A, Homo sapiens, UniProt Q92794, residues 1-85)
Setting: 8-mer, flanks averaged, mean of 2 arrays, mostly near background
Target sequence (chain): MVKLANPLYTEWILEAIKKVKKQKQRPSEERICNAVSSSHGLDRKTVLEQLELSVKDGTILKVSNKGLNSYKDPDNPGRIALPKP
With `CACACCGC` the E-score was 0.158.
With `GGACCGCC` the E-score was 0.318.
With `CCTACAAA` the E-score was -0.0724.
`CACTCCTC` gave an E-score of -0.193.
The E-score of `CGTGGAAG` is reported as 0.136.
`GAATATCC` has an E-score of -0.0278.
`CGAAATGA` has an E-score of -0.14.
With `GAATAGGC` the E-score was -0.146.
For `TGCCTAAA`, the E-score was -0.227.

Series 2 — method: DHFR PCA, deep sequencing; medium: yeast; with: (+)-ABA 1.4 µM; baseline: wild-type fitted maximum; direction: higher = stronger binding
Target: ABI1, truncated, D143A, DHFR fusion (Arabidopsis thaliana)
Setting: methotrexate growth selection, single substitutions
Parent: PYL1, truncated, DHFR fusion (Arabidopsis thaliana); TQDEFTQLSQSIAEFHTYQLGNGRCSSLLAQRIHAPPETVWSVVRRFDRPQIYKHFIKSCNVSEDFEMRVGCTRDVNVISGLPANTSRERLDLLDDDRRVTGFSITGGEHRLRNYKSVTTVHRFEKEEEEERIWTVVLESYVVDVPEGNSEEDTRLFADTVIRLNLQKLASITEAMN
`N149Q`: “relative binding score” 39.1%.
`L169C` — result for “relative binding score”: -4.08%.
`A84D` — result for “relative binding score”: 11%.
`E64P`: “relative binding score” 65.1%.
Under “relative binding score”, `R98L` is recorded as 44.3%.
`N85A` — result for “relative binding score”: 71.2%.
`E38N`: “relative binding score” 26.8%.
For `Q7K`, “relative binding score” read 57.4%.
`C25Q` — result for “relative binding score”: -4.95%.
Under “relative binding score”, `S26K` is recorded as 4.7%.
`V161T` — result for “relative binding score”: 11.4%.
Under “relative binding score”, `E128I` is recorded as 40.5%.

Series 3 — method: RNAcompete; form: RNA; medium: in vitro; tested at: 20 nM; setting: 7-mer, probes averaged, single round; baseline: mean of 7-mers; direction: higher = stronger binding
Target: PABPC1L2, full length, GST fusion (mouse, UniProt A0ABA7IW68)
Construct (chain): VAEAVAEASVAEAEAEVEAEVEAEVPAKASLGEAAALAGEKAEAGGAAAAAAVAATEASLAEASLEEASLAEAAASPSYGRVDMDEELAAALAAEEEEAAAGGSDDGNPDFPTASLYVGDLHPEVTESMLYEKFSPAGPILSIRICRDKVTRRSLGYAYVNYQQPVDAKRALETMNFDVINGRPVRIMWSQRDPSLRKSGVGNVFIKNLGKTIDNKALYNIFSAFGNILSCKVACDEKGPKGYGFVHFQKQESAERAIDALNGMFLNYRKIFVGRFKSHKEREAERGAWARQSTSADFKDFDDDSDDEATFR
With `UUCUAUA` the 7-mer Z-score was -0.202.
With `GGAGUGA` the 7-mer Z-score was 0.0297.
For `AAGGACU`, the 7-mer Z-score was 0.269.
`AUGCGGG` has a 7-mer Z-score of 0.178.
`AAUCUAG` has a 7-mer Z-score of 0.151.
For `CAUCGGU`, the 7-mer Z-score was -0.219.
For `UCGUUGC`, the 7-mer Z-score was -0.358.
`UCCCAUU` has a 7-mer Z-score of -0.336.
For `CGGUUCU`, the 7-mer Z-score was -0.244.
The 7-mer Z-score of `UCUCUCG` is reported as -0.349.
With `UUAAUGU` the 7-mer Z-score was -0.18.
`AACCUGC` has a 7-mer Z-score of -0.00833.
`UCAGGAU` gave a 7-mer Z-score of -0.012.
`GAGGCUC` has a 7-mer Z-score of -0.00289.
`AAACAGC` gave a 7-mer Z-score of 2.8.
For `GAGGGUC`, the 7-mer Z-score was 0.102.

Series 4 — method: RNA Bind-n-Seq; form: RNA; medium: in vitro; tested at: not given; baseline: input RNA pool; direction: higher = stronger binding
Target: RING finger protein unkempt homolog, zinc fingers 1-6, GST-SBP tag (UNK, Homo sapiens, UniProt Q9C0B0, residues 30-357)
Chain of UniProt Q9C0B0 (30-357, looked up): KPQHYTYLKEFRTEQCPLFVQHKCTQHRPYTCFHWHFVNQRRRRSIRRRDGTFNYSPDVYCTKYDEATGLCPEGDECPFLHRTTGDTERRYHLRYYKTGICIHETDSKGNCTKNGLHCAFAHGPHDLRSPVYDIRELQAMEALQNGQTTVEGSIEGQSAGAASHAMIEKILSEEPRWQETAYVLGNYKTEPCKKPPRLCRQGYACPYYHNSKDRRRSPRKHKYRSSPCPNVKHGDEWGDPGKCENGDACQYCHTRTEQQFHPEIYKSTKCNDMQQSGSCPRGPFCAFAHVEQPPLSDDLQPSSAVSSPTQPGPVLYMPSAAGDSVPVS
Setting: RNA with constant flanks, human-mouse chimeric sites, ends assumed
With `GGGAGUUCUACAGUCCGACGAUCGACUUUGGGACUGGUCCUCGCAACGCAGCCUUCUAUAGCCCUCAUGGACAUAUAUUAGUGCUGGCUGGAUUUGGAAAUCUGAGGGGACAAAUGGAAGUAUGGGAUGUUAAAAACUACAAGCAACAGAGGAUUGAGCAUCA` the bound/input enrichment was 0.416 ratio.
With `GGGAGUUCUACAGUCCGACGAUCAUCAAAUACUUUGGGGACAUCAUUAGUGUGGGACAGAGACUGUUGCAAGGGGCCCGGAUCUUAGGGAUUCCAGUUAUCAUAACGGAACAAUACCCUAAAGGACUUGGCAGCACCGUUCAACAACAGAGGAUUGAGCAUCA` the bound/input enrichment was 0.22 ratio.
With `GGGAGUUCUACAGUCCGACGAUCGGGGAGAAACCUUACGAGUGUGUGCAGUGUGGGAAAUCGUAUAGUCAAAGCUCAAAUCUCUUCAGACAUCAGAGACGACACAAUGCAGAAAAACUUUUGAAUGUUGUGAAGGUUUAAGAACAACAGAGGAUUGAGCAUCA` the bound/input enrichment was 0.609 ratio.
The bound/input enrichment of `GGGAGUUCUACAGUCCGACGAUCCUCGGCACCGGCACGCUUUACAUCGCGGAGAGCCGCCUGUCCUGGUUAGAUGGUUCGGGAUUAGGAUUCUCACUGGAAUACCCCACCAUUAGUUUACAUGCAUUAUCCAGGGACCGAAACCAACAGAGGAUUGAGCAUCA` is reported as 3.35 ratio.
For `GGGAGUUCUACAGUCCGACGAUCGAUCAUGAACCACCAUCAGAAAUGAAGAUGAGAUUACCCAAGACGAGCAAAACAGCUGCGCUACAGAAAAAGUAAACUAACCUUGCAGAGUUCCUUAAUGAAGAUACAAGUUAAGAGAGCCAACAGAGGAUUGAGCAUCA`, the bound/input enrichment was 0.216 ratio.
For `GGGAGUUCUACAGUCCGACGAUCGUGUCCUUUCAACUUAAUAAAUCACUGAGGCAUCUCUACUGUUCUGUGAGCAUCAGGAUUUUAGUGCUGUGUCACCACAUGAGAGUUCAGAAGCAGCCUUUCUGUGGAGGGUGGGAAUGACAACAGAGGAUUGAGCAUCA`, the bound/input enrichment was 0.18 ratio.
With `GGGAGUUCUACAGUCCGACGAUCACUCUUGACUCUUUCCAUCCUCUUCCUUUCCCUCUUGAUCUUCAAGGCCAUGAAUCCCAAAAUAACAGUCUUAGUGGGAGGCUAGCAAACAGAGGUGGAAUAAAUCCACCCCAGUGUCUCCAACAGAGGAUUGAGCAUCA` the bound/input enrichment was 0.613 ratio.

Series 5 — method: protein-binding microarray; form: double-stranded DNA, one strand shown; medium: in vitro; tested at: 2540 nM top; setting: 60-bp whole probe; with: salmon DNA 0.4 mg/ml; baseline: random background probes; direction: higher = stronger binding; all sequences stand within: GCCTAGCAC … GTCTTGATTCGCTTGACGCTGCTG
Target: Interferon regulatory factor 3, full length, phosphomimetic (IRF3, Homo sapiens, UniProt Q14653, residues 1-427, S386D/S396D/S398D/S402D/T404D/S405D)
Residues (chain): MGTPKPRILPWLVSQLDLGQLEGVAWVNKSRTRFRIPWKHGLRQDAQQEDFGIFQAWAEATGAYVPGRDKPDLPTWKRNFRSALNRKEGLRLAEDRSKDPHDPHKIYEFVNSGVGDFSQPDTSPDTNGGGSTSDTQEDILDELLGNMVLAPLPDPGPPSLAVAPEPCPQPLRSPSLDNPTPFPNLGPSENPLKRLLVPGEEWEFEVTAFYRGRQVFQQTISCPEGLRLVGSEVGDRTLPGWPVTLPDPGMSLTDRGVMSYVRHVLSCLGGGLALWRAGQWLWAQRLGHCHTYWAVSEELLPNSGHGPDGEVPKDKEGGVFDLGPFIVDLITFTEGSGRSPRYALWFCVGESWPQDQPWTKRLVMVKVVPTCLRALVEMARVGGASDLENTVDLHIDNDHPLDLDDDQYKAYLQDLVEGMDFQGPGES
`GACGATTTCCGTTCCGAGACGTGCTAG`: “fitted relative affinity” 4.53 z-score.
`TCAGGTTTCGACTTTCGGTTAGTGCTA` — result for “fitted relative affinity”: 4.03 z-score.
Under “fitted relative affinity”, `GACGGTTACGGGACTGGGGACGTGCTA` is recorded as -0.0925 z-score.
For `GACGTTATCAGTCTCGAGACGTGCTAG`, “fitted relative affinity” read 1.64 z-score.
Under “fitted relative affinity”, `GAAGATATCGGGACTGGAGACGTGCTA` is recorded as -0.345 z-score.
`GACGATTCCACTTTCGAGACGTGCTAG` — result for “fitted relative affinity”: 2.63 z-score.
`CTTTTTTTCTTTTATTAGTGGTGCTAG`: “fitted relative affinity” 4.07 z-score.
`TTAGGTATCGGGTCTCGGTTAGTGCTA`: “fitted relative affinity” 2.44 z-score.
Under “fitted relative affinity”, `GACGGTTTCGGGTTTCGGAACGTGCTA` is recorded as 6.47 z-score.
For `GGACCGACCCCTCCATCCCTGTGCTAG`, “fitted relative affinity” read -0.25 z-score.
Under “fitted relative affinity”, `TTAGGTATCCTTTGCCTTTAGTGCTAG` is recorded as 2.43 z-score.
`TTAGGTTTCGACTTTCGGTGAGTGCTA` — result for “fitted relative affinity”: 3.89 z-score.
For `GTGTGCATCTATCTTAAATAGTGCTAG`, “fitted relative affinity” read 0.449 z-score.
For `TTAGTACTGGGGTTTCGATTAGTGCTA`, “fitted relative affinity” read 1.29 z-score.

Series 6 — target: CCND2, cyclin fold, Cln2 fusion (human); method: yeast growth competition, sequencing; medium: yeast; setting: weak parent motif; baseline: not given; direction: higher = stronger binding
Parent: SAMHD1 docking peptide (human); ASKSRVQLFKDDP
`D12Y` — result for “normalised enrichment score”: 0.554.
`K3G`: “normalised enrichment score” 0.161.
Under “normalised enrichment score”, `V6C` is recorded as -0.204.
`R5L` — result for “normalised enrichment score”: -0.187.
For `S4P`, “normalised enrichment score” read 0.00994.
For `F9C`, “normalised enrichment score” read 0.0687.
`S2K` — result for “normalised enrichment score”: 0.0419.
For `K3T`, “normalised enrichment score” read -0.123.
Under “normalised enrichment score”, `F9W` is recorded as 0.358.
`F9H` — result for “normalised enrichment score”: 0.0716.
Under “normalised enrichment score”, `D11H` is recorded as 0.000919.
`K10W` — result for “normalised enrichment score”: 0.265.
